# Measurements pooled from the literature.
# Numbered parts are unrelated; each lists some results of a single study.

# Block 1
# Target: Interferon regulatory factor 7, full length, phosphomimetic (IRF7, Homo sapiens, UniProt Q92985, residues 1-503, S471D/S472D/S475D/S476D/S477D/S483D/S484D/S487D)
# Technique: protein-binding microarray
# Molecule type: double-stranded DNA, one strand shown
# Sample: in vitro
# Concentration: 2200 nM top
# Notes: 60-bp whole probe
# Added: salmon DNA 0.4 mg/ml
# Baseline: random background probes
# Reading: higher = stronger binding
# All sequences stand within: GCCTAGCAC … GTCTTGATTCGCTTGACGCTGCTG
# Construct (chain): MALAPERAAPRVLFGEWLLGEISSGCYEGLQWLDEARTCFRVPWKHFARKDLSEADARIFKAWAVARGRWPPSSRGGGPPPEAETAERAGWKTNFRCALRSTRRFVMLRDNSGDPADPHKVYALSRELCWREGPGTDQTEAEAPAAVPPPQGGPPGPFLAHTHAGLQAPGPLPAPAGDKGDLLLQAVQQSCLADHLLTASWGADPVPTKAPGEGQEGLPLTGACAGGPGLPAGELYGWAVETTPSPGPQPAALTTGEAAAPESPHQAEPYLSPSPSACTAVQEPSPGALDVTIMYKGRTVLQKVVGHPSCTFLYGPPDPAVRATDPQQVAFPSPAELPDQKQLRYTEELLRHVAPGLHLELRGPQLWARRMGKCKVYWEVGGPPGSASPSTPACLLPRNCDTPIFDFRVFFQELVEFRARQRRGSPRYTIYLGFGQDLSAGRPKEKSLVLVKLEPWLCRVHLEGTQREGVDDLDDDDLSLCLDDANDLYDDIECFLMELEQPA
Sequence,fitted relative affinity [z-score]
TCTCTGCTACCCTCTGAAAGTGTGCTA,1.36
TTAGGGTTCCTACTGCTTTAGTGCTAG,0.243
TTAGGACTGGACACTGGGTTCGTGCTA,-0.636
TTAGGTGCCGGTTTCGGTTAGTGCTAG,5.92
TTCTTAATGCTTCTGGACCAGTGCTAG,0.23
ACAGCAAGAGCTCAACGGGGGTGCTAG,0.0382
TCATCAATCATTTTCGTACTGTGCTAG,3.34
ATAGATATCGGGTTTCGATTAGTGCTA,3.19
TGTGTTGCAGAAACGCCATGGTGCTAG,0.361
GGGGCTTGGGAGAGGCATCCGTGCTAG,-1.12
TTAGATCTCAGTTTTGATTAGTGCTAG,0.597
GACGGACTGGCGTATCGGGACGTGCTA,-1.02
TCAAATTTCTTCCTCCCACTGTGCTAG,1.58
TTAGATTTCAGTATCGGTTAGTGCTAG,1.18
TTAGGTTTCGGACCGGGTTAGTGCTAG,2.03
CTCTTCTTGCATCTGGGTATGTGCTAG,1.87
TCCCAAGTCTTGTTTTACAATGTGCTA,0.859
CTAGGTATCCTACTGCTTTAGTGCTAG,0.631

# Block 2
# Target: Ras GTPase-activating protein-binding protein 1, full length (G3BP1, Homo sapiens, UniProt Q13283)
# Chain of UniProt Q13283 (whole entry, looked up): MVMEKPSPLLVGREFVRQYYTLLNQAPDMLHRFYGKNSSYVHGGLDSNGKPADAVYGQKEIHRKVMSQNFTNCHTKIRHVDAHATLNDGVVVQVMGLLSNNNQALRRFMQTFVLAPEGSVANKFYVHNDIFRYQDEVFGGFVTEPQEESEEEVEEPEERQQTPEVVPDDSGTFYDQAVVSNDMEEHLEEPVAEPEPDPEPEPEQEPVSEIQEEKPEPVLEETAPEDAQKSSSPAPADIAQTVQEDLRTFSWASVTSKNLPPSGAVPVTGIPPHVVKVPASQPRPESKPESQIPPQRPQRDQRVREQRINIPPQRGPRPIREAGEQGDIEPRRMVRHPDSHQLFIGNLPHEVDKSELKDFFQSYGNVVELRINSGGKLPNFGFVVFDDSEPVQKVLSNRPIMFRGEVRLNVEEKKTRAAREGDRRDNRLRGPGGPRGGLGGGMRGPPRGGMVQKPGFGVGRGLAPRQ
# Technique: RNA Bind-n-Seq
# Molecule type: RNA
# Sample: in vitro
# Concentration: 200 nM
# Notes: whole 134-nt RNA, ends assumed
# Added: 150 mM LiCl
# Baseline: input library
# Reading: higher = stronger binding
# All molecules: 7-deaza-guanosine replaces G
# All sequences stand within: GGGAGUUCUACAGUCCGACGAUC … UGGAAUUCUCGGGUGUCAAGG
Sequence,log2 enrichment
ACCAUGCAGGUGGGCAUCAAAGGGAAGUGGGGCAAGGGGGGGAUAGGGAGGGGGGUAACACUUUGGGAACAGGUGGUCCCAGGUCGUUUC,0.123
AAGUCCUGUGCUACACAUCGUAUGUACCGAAUCGGGGUGGGGUUUUUGGGGAGGGGAAAGUAUUAUGUUACGCCGUUCGGAUCUGCACUU,0.448
UGCCUCCCUGCUGCAGAAAUACACCGACAACAGCGAGAAGCCAUCCGGGAAGAGACUGUGCAAAACCAAACACUUGAUCCCUCAGGAGUC,-1.18
CUCAAGUCCUGUGCUACACAUCGUAUGUACCGAAUCGGAAAGGAAAGGAAAGGAAAGUAUUAUGUUACGCCGUUCGGAUCUGCACUUCCA,-0.106
AAGUCCUGUGCUACACAUCGUAUGUACCGAAUCGGGGUUUUUGGGGUGGGGAGGGGAAAGUAUUAUGUUACGCCGUUCGGAUCUGCACUU,0.554
ACCAUGCAGGUGGGCAUCUUUGGGAAGUGGGGCAAGGGGGGGAUAGGGAGGGGGGUAACACUCUGGGAACAGGUGGUCCCAGGUCGUUUC,0.34
CUCAAGUCCUGUGCUACACAUCGUAUGUACCGAAUCGGUGGAAAAAGGAAAGGAAAGUAUUAUGUUACGCCGUUCGGAUCUGCACUUCCA,0.0777
CAAGUCCUGUGCUACACAUCGUAUGUACCGAAUCGGGAAAAAGGGAGGGAAAGGGAAAGUAUUAUGUUACGCCGUUCGGAUCUGCACUUC,-0.303

# Block 3
# Target: RNA binding protein fox-1 homolog 2, RRM domain, GST-SBP tag (RBFOX2, Homo sapiens, UniProt O43251-10, residues 100-194)
# Technique: RNA Bind-n-Seq
# Molecule type: RNA
# Sample: in vitro
# Concentration: 365 nM
# Notes: natural RNA segment, single round, ends assumed
# Baseline: no-protein control
# Reading: higher = stronger binding
# All sequences stand within: GGGAGUUCUACAGUCCGACGAUC … UGGAAUUCUCGGGUGCCAA
# Construct (chain): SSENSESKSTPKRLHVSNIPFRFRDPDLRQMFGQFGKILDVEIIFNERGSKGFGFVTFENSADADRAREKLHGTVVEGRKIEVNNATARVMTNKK
Sequence,RBNS enrichment (R)
UCAUUAAUGUUAAAAGAGCAGCCACUGUUUUGUUGAAACAAACAGCUUAACUUCAGAAAUAAGAACUAGCACACUUAGACAAACAGGAGAGCAGGGGUUUGAAGCCAGCU,0.426
AGCUUUACAGAAAAUCAUUGUAAGACAAUUUAUUAAUUUGAGAAAGUCACCUUGACAGUUCUUUGCACACAAGUUUUACACCUCUCUGGAUUCGAAGUUUGUAUUGUAUU,1.71
AGCCAUUAGAAAGAUUGUUAAUCCUAUGAACUCCCUUUUGUAGGAGAGAAAGGGCCAAUCUGUAGGGGUAGCCCUGUCCAGGUAAAGUUGUUUUCAGCCUCAUGUCUACU,0.301
GCACUUGUACCUCCCUGGCAUACUGAGAAUUCCUGGGUCCAAUCAAAGGCCCUGACGGGCCCUGUCUUCAGGUUCUAGAAACUACCAGAAGAAGCUUCUUCCAUCUUAUC,0.279
UCUCUACUCACUGCAACCUCCACCUCCCGGGUUCAAGCAAUUCUCCUGCCUCAGCCUCCUGAGUAGCUGGGAUGACAGGUGCACGCCACCACGCCCGGCUAAUUUUUAUA,0.576
AAUCUGUCGUCGUCUUAUACAGUGUCAGCCUCGAGUACAUUUAUUAACCUUUUGGGGCUGUCAGUUUUCCACUAGGAUUAAGAUUUUGGCCGGGCGCGGUGGCUCACGCC,0.585
AGCAUAUGUAGGAUAUUCAAUUUGCAGAUACUUUUGUUGGUUAUGUUGGUUUAUAAUAGACAAGUUUUAUGGUCAUAUGCAAUUAUUCCAUUAUCUUUUUGGACACAGUG,0.554
CUGCCUCACCUGCUUCGCCACAGACUCUUGUUCCCAGCCCCUUGGGGCCUCCGUGUUUGGGGUGGGGGAGCUGCUUAGAGACUGUGCCCGUCCUCGGCCCCCCACCCUGA,0.557

# Block 4
# Target: Sal-like protein 4, full length isoform A (SALL4, Homo sapiens, UniProt Q9UJQ4, residues 1-1053)
# Chain of UniProt Q9UJQ4 (whole entry, looked up): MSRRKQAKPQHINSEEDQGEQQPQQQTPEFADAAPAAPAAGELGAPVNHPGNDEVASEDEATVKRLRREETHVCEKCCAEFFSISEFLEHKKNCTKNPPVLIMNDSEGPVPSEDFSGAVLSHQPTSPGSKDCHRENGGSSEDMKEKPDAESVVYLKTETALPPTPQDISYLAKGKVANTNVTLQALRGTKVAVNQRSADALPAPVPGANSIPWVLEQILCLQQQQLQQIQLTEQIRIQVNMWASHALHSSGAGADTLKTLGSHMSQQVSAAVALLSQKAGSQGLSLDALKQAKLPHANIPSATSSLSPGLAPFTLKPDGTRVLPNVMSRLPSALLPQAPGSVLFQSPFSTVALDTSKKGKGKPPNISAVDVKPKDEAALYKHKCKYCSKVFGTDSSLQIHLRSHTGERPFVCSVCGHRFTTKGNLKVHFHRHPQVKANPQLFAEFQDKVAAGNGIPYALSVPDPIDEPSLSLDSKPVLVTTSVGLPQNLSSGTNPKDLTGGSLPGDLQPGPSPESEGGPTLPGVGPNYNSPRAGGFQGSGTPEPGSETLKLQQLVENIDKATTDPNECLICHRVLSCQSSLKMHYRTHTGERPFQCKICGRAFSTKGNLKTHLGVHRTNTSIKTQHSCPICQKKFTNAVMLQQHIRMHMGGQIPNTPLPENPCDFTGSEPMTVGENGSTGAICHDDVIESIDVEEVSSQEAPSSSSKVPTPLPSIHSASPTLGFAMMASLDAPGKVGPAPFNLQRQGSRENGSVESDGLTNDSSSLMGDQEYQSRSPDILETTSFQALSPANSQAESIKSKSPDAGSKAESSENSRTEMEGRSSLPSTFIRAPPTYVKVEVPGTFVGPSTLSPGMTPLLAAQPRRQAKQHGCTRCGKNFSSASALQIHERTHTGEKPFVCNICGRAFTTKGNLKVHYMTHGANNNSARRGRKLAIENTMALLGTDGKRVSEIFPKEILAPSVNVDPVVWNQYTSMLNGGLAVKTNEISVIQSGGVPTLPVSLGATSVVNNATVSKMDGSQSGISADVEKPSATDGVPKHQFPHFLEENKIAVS
# Technique: universal PBM
# Molecule type: double-stranded DNA, one strand shown
# Sample: in vitro
# Concentration: 600 nM
# Notes: 8-mer, flanks averaged, mean of replicates
# Reading: higher = stronger binding
Sequence,E-score
ACGTCTTA,0.0854
GCGTCTAC,-0.248
CGATAGAG,-0.0356
CCCCTAGA,-0.0371
CGGTGTGC,-0.276
CATATTAA,0.417
CGTCTAAC,0.00993
GAAGCTCA,-0.137
CCCGAGAC,-0.311
CTCCACGA,-0.147
CTGTTCGA,-0.0433
ACTTCTGC,0.0137
GATCAGCA,-0.0758
ATGCTATC,0.0623
ACCTCTCT,-0.105
CGTTTCAG,-0.0473
GTTCAGCA,-0.133
AACAGAGT,0.0738
AGCGATCG,-0.13
GTACCGAA,-0.0358
TAATTTGA,0.311
